Assay results of several laboratories.
Numbered parts are unrelated; each lists some results of a single study. Positions count from the first letter of the parent shown.

Set 1
Target: Sal-like protein 4, full length isoform B (SALL4, Homo sapiens, UniProt Q9UJQ4-2, residues 1-616)
Technique: universal PBM
Form: double-stranded DNA, one strand shown
Medium: in vitro
Tested at: not given
Setting: 8-mer, flanks averaged, mean of replicates
Direction: higher = stronger binding
Construct (chain): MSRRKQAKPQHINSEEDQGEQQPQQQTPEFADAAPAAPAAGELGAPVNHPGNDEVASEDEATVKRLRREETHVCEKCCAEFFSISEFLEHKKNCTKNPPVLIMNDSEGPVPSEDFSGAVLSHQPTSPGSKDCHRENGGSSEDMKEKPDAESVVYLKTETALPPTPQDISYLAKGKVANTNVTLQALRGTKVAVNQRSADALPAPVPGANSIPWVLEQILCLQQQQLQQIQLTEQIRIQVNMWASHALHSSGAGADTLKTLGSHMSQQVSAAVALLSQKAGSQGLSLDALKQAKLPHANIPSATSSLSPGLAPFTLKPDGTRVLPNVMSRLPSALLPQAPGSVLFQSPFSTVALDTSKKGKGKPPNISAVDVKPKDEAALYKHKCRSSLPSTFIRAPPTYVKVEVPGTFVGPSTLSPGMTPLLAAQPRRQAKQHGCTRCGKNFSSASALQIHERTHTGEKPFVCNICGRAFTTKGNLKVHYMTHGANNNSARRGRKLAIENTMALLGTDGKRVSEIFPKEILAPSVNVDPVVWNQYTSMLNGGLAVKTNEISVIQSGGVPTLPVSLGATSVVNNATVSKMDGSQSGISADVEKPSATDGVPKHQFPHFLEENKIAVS
Sequence	E-score
CCTAGTTA	0.0894
AATTTCCC	0.088
ACGATACT	0.0805
AGCTAATA	0.154
AATTCATC	0.149
ACTCTTTG	0.0409
GTGTCTAA	0.166

Set 2
Target: ABI1, truncated, D143A, DHFR fusion (Arabidopsis thaliana)
Technique: DHFR PCA, deep sequencing
Medium: yeast
Setting: methotrexate growth selection, single substitutions
Together with: (+)-ABA 1.4 µM
Reference: wild-type fitted maximum
Direction: higher = stronger binding
Parent: PYL1, truncated, DHFR fusion (Arabidopsis thaliana); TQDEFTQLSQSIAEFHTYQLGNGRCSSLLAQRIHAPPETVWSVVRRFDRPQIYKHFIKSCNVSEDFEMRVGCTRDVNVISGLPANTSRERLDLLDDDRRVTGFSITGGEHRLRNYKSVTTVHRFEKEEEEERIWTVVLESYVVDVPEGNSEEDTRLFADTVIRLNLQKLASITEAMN
Substitution	relative binding score [%]
S171K	65
E125V	74.2
S140R	20
E89F	0.448
C60S	-1.28
R99T	7.97
D144F	-28.6
T119S	0.967
F157Q	10

Set 3
Target: Interferon regulatory factor 5, full length, phosphomimetic (IRF5, Homo sapiens, UniProt Q13568-2, residues 1-514, K96S/S451D/S453D/S456D/S462D)
Technique: protein-binding microarray
Form: double-stranded DNA, one strand shown
Medium: in vitro
Tested at: 250 nM
Setting: 60-bp whole probe
Together with: salmon DNA 0.4 mg/ml
Reference: random background probes
Direction: higher = stronger binding
All sequences stand within: GCCTAGCAC … GTCTTGATTCGCTTGACGCTGCTG
Sequence	log fluorescence
AGTTCTCTAGAAATTCCCACGGTGCTA	0.0863 z-score
GTCGGTTCCCTTTTCCTGACGTGCTAG	0.778 z-score
TAAGATTTCAGTTCCGATTAGTGCTAG	2.39 z-score
GACGGTTTACTTATCCTGACGTGCTAG	-0.00974 z-score
TTAGGTCTCCTTATCCTTTCGTGCTAG	0.389 z-score
TTAGGTCTCGACTTTCGGTTAGTGCTA	9.79 z-score
TTCGATTTCAGTTCCGATTAGTGCTAG	3.55 z-score
GACGAACAGAGACTGGAGACGTGCTAG	-0.166 z-score

Other studies, line by line
Molecule	target	test	test system	setting	scale	measurement	result
PhoQ, residues 284 288 289 292 302 303 ALAMYF	PhoP, residues 12 14 15 18 19 NQGLL (Escherichia coli, UniProt P23836)	Sort-seq, item: YFP reporter	E. coli	PhoQ-PhoP variant library, together with: 10 µM Mg2+	reference: high Mg2+ state, higher = stronger signaling	fold induction	9.19
